Published values collected from several papers.
Parts stem from different laboratories: compare values within a part only.

Study 1
Target: Cyclic AMP-responsive element-binding protein 1, full length (CREB1, Homo sapiens, UniProt P16220, residues 1-327)
Chain of UniProt P16220 (whole entry, looked up): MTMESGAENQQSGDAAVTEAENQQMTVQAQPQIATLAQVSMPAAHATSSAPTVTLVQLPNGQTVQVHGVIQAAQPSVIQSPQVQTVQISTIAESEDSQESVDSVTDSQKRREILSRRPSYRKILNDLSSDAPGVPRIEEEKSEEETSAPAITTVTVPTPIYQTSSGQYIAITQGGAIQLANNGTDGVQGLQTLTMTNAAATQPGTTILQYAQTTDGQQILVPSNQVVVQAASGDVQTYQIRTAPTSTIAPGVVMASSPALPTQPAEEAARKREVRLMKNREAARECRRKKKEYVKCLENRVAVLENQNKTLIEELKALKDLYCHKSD
Technique: protein-binding microarray
Molecule type: hairpin DNA
Matrix: in vitro
Tested at: not given
Notes: whole hairpin DNA, median over replicate spots
Relative to: not given
Reading: higher = stronger binding
Strand | median fluorescence
GAGGCCGGATGACGCCAGCCTCCTGGCTGGCGTCATCCGGCCTCACACTC | 5100 a.u.
GAGGCCGGATGACGTGAGCCTCCTGGCTCACGTCATCCGGCCTCACACTC (5mC at 29) | 10300 a.u.
GAGGCCGACGACCGCGTGCCTCCTGGCACGCGGTCGTCGGCCTCACACTC (5mC at 9 15 29 35) | 2970 a.u.
GAGGCCGGATGACATCAGCCTCCTGGCTGATGTCATCCGGCCTCACACTC | 5420 a.u.

Study 2
Target: Interferon regulatory factor 7, full length, phosphomimetic (IRF7, Homo sapiens, UniProt Q92985, residues 1-503, S471D/S472D/S475D/S476D/S477D/S483D/S484D/S487D)
Chain of UniProt Q92985 (whole entry, unmodified, looked up): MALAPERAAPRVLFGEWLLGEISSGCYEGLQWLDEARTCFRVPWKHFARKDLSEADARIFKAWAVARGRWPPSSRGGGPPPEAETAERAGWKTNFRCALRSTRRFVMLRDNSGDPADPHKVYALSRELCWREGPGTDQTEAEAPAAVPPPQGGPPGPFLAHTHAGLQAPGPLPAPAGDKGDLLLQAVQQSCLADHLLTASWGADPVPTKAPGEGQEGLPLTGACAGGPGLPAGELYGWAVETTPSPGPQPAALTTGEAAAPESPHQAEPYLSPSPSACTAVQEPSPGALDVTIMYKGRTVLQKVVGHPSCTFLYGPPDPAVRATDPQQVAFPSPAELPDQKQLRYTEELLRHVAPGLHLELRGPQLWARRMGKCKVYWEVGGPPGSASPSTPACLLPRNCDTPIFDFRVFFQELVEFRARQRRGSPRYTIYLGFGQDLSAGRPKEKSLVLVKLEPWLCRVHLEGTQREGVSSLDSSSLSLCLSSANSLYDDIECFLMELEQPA
Technique: protein-binding microarray
Molecule type: double-stranded DNA, one strand shown
Matrix: in vitro
Tested at: 2200 nM top
Notes: 60-bp whole probe
Added: salmon DNA 0.4 mg/ml
Relative to: random background probes
Reading: higher = stronger binding
Strand | fitted relative affinity [z-score]
GCCTAGCACTTAGGACTGAGGTTTCGGTTAGTGCTAGTCTTGATTCGCTTGACGCTGCTG | 3.81
GCCTAGCACTTGGATTTCGGGTTTCGATTAGTGCTAGTCTTGATTCGCTTGACGCTGCTG | 5.75
GCCTAGCACTTGGATCTCAGTATCGATTAGTGCTAGGTCTTGATTCGCTTGACGCTGCTG | 0.62
GCCTAGCACGACGGTATCGGACTGGTGACGTGCTAGGTCTTGATTCGCTTGACGCTGCTG | -0.156

Mixed results
PHO4 full length, GST-tagged: Phosphate system positive regulatory protein PHO4, full length, GST-tagged (PHO4, Saccharomyces cerevisiae, UniProt P07270, residues 1-312)
Chain of UniProt P07270 (whole entry, looked up): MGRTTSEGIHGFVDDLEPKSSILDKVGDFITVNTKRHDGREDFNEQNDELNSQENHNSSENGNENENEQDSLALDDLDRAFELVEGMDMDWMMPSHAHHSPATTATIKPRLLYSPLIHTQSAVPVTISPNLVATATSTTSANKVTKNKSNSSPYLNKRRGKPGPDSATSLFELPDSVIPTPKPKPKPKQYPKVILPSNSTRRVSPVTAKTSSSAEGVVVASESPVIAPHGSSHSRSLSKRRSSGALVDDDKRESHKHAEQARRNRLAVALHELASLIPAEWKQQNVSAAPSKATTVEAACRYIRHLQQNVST
Molecule | target | test | test system | setting | scale | quantity | value
CCGCTCCCGGCTTGCCACGTGACAAGCCACAGTGTTGTCTTGATTCGCTTGACGCTGCTG | PHO4 full length, GST-tagged | competition protein-binding microarray | double-stranded DNA, one strand shown, in vitro | 2 µM, whole 60-bp probe, lowest competitor level, added: Cbf1 competitor, 0.05 µM | higher = stronger binding | fluorescence intensity | 15900 a.u.
PhoQ, residues 284 288 289 292 302 303 DDMDFR | PhoP, residues 12 14 15 18 19 NMSFL (Escherichia coli, UniProt P23836) | Sort-seq, item: YFP reporter | E. coli | PhoQ-PhoP variant library, added: 10 µM Mg2+ | relative to: high Mg2+ state, higher = stronger signaling | fold induction | 0.711
TCATGTTCCTGACAGGGCGTGATGGACTTTACTATTGTCTTGATTCGCTTGACGCTGCTG | PHO4 full length, GST-tagged | competition protein-binding microarray | double-stranded DNA, one strand shown, in vitro | 2 µM, whole 60-bp probe, lowest competitor level, added: Cbf1 competitor, 0.05 µM | higher = stronger binding | fluorescence intensity | 5840 a.u.

Repeated from above (study 1):
Strand | median fluorescence
GAGGCCGGATGACGTGAGCCTCCTGGCTCACGTCATCCGGCCTCACACTC (5mC at 29) | 10300 a.u.
GAGGCCGACGACCGCGTGCCTCCTGGCACGCGGTCGTCGGCCTCACACTC (5mC at 9 15 29 35) | 2970 a.u.
